Measurements of several laboratories.
Numbered parts are unrelated; each lists some results of a single study. Substitutions count along the parent as printed.

Sample 1 — method: DHFR PCA, deep sequencing; medium: yeast; together with: (+)-ABA 1.4 µM; baseline: wild-type fitted maximum; reading: higher = stronger binding; measurement: relative binding score
Target: ABI1, truncated, D143A, DHFR fusion (Arabidopsis thaliana)
Setting: methotrexate growth selection, single substitutions
Starting sequence: PYL1, truncated, DHFR fusion (Arabidopsis thaliana); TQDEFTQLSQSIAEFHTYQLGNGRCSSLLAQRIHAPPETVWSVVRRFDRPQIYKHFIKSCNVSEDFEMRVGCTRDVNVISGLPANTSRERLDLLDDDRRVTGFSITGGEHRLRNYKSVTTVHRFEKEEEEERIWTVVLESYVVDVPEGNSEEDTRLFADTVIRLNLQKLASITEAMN
S171R: 60.5%
I172Y: 24.6%
G71C: 1.41%
S150P: 8.2%
T160H: 20.2%
I79E: 14.3%
V100A: 55.1%
Y141Q: -13.5%
T1S: 58.5%
T73H: 51.5%
V62M: 26.7%
K116E: 1.64%
V76Q: -11.9%
F15M: 16.4%

Sample 2 — method: universal PBM; molecule type: double-stranded DNA, one strand shown; medium: in vitro; concentration: 600 nM; reading: higher = stronger binding; measurement: E-score
Target: Sal-like protein 4, full length isoform A (SALL4, Homo sapiens, UniProt Q9UJQ4, residues 1-1053)
UniProt Q9UJQ4, sequence (whole entry, looked up): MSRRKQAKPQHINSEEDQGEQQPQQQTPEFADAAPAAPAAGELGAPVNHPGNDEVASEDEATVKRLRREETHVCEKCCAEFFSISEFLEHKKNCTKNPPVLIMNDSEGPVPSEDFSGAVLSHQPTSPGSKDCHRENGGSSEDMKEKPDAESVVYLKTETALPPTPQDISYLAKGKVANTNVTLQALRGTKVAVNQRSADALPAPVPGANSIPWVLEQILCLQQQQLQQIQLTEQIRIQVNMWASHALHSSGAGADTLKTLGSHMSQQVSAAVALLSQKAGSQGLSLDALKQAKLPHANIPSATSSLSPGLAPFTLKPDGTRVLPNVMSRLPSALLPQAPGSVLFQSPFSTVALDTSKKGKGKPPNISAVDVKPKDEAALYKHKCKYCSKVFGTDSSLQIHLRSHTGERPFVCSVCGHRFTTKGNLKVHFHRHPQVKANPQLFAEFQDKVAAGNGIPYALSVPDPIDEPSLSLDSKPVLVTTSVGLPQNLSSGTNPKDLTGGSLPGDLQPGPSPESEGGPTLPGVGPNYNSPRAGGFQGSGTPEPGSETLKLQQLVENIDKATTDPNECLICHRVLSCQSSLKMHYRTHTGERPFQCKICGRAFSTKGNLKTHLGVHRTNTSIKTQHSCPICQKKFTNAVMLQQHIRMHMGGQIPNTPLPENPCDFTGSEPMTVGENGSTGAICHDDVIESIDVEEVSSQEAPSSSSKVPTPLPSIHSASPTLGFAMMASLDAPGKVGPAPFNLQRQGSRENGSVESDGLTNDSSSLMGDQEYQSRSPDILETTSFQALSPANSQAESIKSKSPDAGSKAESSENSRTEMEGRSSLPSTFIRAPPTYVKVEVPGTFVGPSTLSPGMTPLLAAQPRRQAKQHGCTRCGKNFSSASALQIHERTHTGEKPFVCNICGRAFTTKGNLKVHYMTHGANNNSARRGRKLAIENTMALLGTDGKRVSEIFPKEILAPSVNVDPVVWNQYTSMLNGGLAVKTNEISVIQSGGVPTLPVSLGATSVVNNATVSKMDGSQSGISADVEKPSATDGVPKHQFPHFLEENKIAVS
Setting: 8-mer, flanks averaged, mean of replicates
ATGGGCAG: -0.178
CGCAGATC: -0.277
CGACAGCA: -0.0965
GCTTTGGA: -0.00145
CTTTGGGC: -0.195
AAAACCTC: 0.0235
GGATGCCC: -0.4
CAATACCA: 0.206
AGAGCCTA: -0.0772
ATCATAGC: 0.184
GGATCCAC: -0.228
AAACGCGT: 0.00158
CTGGGCTA: -0.347
AAAATGAC: 0.207
GTGGTACA: 0.00844
CCTATTTA: 0.189
CGTGGCAC: -0.201
AAGTAAGT: 0.136
CCCTTAGG: -0.26
CTTAGATC: -0.0666
TAAGAGTA: 0.299
ACGGGATA: 0.025
GACCTTGC: -0.194
CATCATAG: 0.0964
CAGGGTGC: -0.338

Sample 3 — method: competition protein-binding microarray; molecule type: double-stranded DNA, one strand shown; medium: in vitro; concentration: 2 µM; together with: Cbf1 competitor, 0.05 µM; reading: higher = stronger binding; measurement: fluorescence intensity; shared flanks, not repeated: … GTCTTGATTCGCTTGACGCTGCTG
Target: Phosphate system positive regulatory protein PHO4, full length, GST-tagged (PHO4, Saccharomyces cerevisiae, UniProt P07270, residues 1-312)
Setting: whole 60-bp probe, lowest competitor level
Target sequence (chain): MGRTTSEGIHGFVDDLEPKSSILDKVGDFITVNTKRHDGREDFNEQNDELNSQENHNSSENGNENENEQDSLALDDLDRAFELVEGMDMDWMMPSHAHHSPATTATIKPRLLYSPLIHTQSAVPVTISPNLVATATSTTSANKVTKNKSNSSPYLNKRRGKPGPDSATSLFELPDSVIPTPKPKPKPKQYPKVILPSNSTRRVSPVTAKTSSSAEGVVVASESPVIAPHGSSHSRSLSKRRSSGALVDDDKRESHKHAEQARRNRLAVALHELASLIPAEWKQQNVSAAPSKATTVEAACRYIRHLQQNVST
AAAGCGGTAATTTCCCACGTGTTTTCACATATCTAT: 19500 a.u.
CGGGGTTAAGTTTGTGTTGTGGGTGGCTTGCAGCAG: 4580 a.u.
TGAATTACTTCGCCCAACGTGTTGATGGCATGGGCA: 11600 a.u.
TGGCTTTGCTAACGACATGCGTGAAGAAAAGCGGTA: 6170 a.u.
CTTTCCCGATCTTTCCACGTGTTTTTAGCACATTTG: 17800 a.u.
CATACCCAACCTTGCATGGTGGGTGAAGATATTTGT: 5790 a.u.
TGCGCAACAACTTGTGGTGTGGGTGTATGTCTAGAA: 6410 a.u.
TGCGCAATGGAGAAACACGGGTGGCATAGGTCTGCG: 7000 a.u.
CCGGTTTTTATTCCTCCCGTGGTCGTTGTCTCTACC: 6170 a.u.
TTTAGTGCGAACGCCTACGTGTCCTGTTAACTTATC: 6460 a.u.
TGAACGAAAAGTGTAGGCGTGCCAGAAATGTCAACA: 7470 a.u.
CATACCCAACCTTGCATCGTGGGTGAAGATATTTGT: 13500 a.u.
GTTCTGGTGGTGGTTACCGTGCCAGGTTGTCTGGTG: 5220 a.u.
CGGGGTTAAGTTTGGCAAGTGGGTGGCTTGCAGCAG: 4740 a.u.
CGCCCCCCAGCTCGGCACGCTGGTCAACACAGGCTG: 5830 a.u.
CAGTTGCTGACGAGTCACGTTGATGAGCAAGAATAC: 12500 a.u.
CGTCCTAGTGATTTTCACGTGCTGTCCATGAGGAAG: 17000 a.u.
CGTCCTAGTGATTTTCACGTGAAGTCCATGAGGAAG: 9010 a.u.
ATAACCACTAAATTCAAAAACACTTATTTTCAATAT: 3350 a.u.
TTACCGACGAGGCTTACCGTGATTGCTCTCCAGTAG: 3750 a.u.
AAGATAATGCTTTCACACGTGCAAAATAAAATAGTA: 16800 a.u.
TGCGCAACAACTTGGATGGTGGGTGTATGTCTAGAA: 5050 a.u.

Sample 4 — target: CCNB2, cyclin fold, Cln2 fusion (human); method: yeast growth competition, sequencing; medium: yeast; setting: weak parent motif; baseline: not given; reading: higher = stronger binding; measurement: normalised enrichment score
Starting sequence: ORC1 docking peptide (human); PRARKRLELGNLG
L7M: 0.329
L9F: 0.448
L9T: 0.454
E8D: 1.31
K5Q: 0.325
R6C: 0.486
R4C: -0.0973
A3I: -0.106
N11P: 0.807
R6D: 0.227
N11C: 0.632
R6Q: 0.0504
G13D: 0.565
R4A: -0.0527
R6W: -0.00938
G13K: 0.369
L9N: 0.349
R4H: 0.613
R2E: 0.259
P1N: 0.511
A3T: 0.641
L12R: -0.221
G13I: 0.000569
K5Y: 0.114
N11R: 0.863

Sample 5 — method: protein-binding microarray; molecule type: double-stranded DNA, one strand shown; medium: in vitro; concentration: 2200 nM top; setting: 60-bp whole probe; together with: salmon DNA 0.4 mg/ml; baseline: random background probes; reading: higher = stronger binding; measurement: fitted relative affinity; shared flanks, not repeated: GCCTAGCAC … GTCTTGATTCGCTTGACGCTGCTG
Target: Interferon regulatory factor 7, full length, phosphomimetic (IRF7, Homo sapiens, UniProt Q92985, residues 1-503, S471D/S472D/S475D/S476D/S477D/S483D/S484D/S487D)
Construct (chain): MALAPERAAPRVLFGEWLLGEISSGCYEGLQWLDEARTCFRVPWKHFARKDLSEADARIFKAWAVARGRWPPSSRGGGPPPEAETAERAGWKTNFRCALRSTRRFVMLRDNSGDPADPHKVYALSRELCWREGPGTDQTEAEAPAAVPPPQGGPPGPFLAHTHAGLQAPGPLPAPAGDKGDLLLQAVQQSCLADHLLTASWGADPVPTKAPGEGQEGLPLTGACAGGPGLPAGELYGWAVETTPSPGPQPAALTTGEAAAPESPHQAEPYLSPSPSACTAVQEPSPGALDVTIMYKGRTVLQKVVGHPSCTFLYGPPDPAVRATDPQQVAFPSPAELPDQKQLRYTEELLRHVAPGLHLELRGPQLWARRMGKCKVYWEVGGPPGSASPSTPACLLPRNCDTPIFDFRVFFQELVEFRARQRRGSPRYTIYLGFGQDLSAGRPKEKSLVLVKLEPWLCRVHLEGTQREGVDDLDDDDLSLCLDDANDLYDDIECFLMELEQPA
TCAAGCAAAAATGATTGACTGTGCTAG: -0.545 z-score
CACGATCTCAGACTGGAGACGTGCTAG: 0.455 z-score
TCATCTGTTCTTTTCAGACTGTGCTAG: 1.7 z-score
TCAAACTTCCCAATGGTACTGTGCTAG: 0.781 z-score
TCAACTCTCTCCATGTGACTGTGCTAG: 1.39 z-score
GACGACATCAGTTTCGAGACGTGCTAG: 3.21 z-score
GACGGTATCGGGTTTCTGGACGTGCTA: 0.744 z-score
TTAGGACTGCTTTTCCTATAGTGCTAG: 0.805 z-score
ACGTTTTTCATTTTTTTTTTGTGCTAG: 4.27 z-score
TCAGGTATCGGTCTCGGTTAGTGCTAG: 1.59 z-score
GACGGTATCGTGTATCGGGACGTGCTA: -0.000889 z-score
TTAGGTATCGGACTAGGTTAGTGCTAG: 0.0809 z-score
CTCATTTTCGTTTTGTGTCTGTGCTAG: 15.3 z-score
GACGGACTGGACCATCGGGACGTGCTA: -1.01 z-score
TTACAACTGGGGTTTCGATTAGTGCTA: 3.08 z-score
TCATGACTCCCTCTCTGACTGTGCTAG: 0.958 z-score
GACGAACTGGGGTTTTGAGACGTGCTA: 0.294 z-score
TCAACTTTGAATTAGAAACTGTGCTAG: -0.275 z-score
TCAATATTCACTATAGTACTGTGCTAG: 1.17 z-score
TTGGATTTCGGGTTTCGATTAGTGCTA: 5.75 z-score
TTTGCTTTCCTTCTTGAACTGTGCTAG: 3.47 z-score
TACGGTATCGACACTGGGGACGTGCTA: 0.139 z-score

Further values, each from its own experiment
PhoQ, residues 284 288 289 292 302 303 SLGVVW — fold induction (PhoP, residues 12 14 15 18 19 NMSFL (Escherichia coli, UniProt P23836); Sort-seq, refers to: YFP reporter; E. coli; PhoQ-PhoP variant library, together with: 10 µM Mg2+; baseline: high Mg2+ state, higher = stronger signaling): 6.99

For quick reference, copied from above (sample 3):
CGGGGTTAAGTTTGGCAAGTGGGTGGCTTGCAGCAG: 4740 a.u.
TTTAGTGCGAACGCCTACGTGTCCTGTTAACTTATC: 6460 a.u.
CAGTTGCTGACGAGTCACGTTGATGAGCAAGAATAC: 12500 a.u.
TGCGCAACAACTTGGATGGTGGGTGTATGTCTAGAA: 5050 a.u.
CGTCCTAGTGATTTTCACGTGAAGTCCATGAGGAAG: 9010 a.u.
TGGCTTTGCTAACGACATGCGTGAAGAAAAGCGGTA: 6170 a.u.
TGCGCAACAACTTGTGGTGTGGGTGTATGTCTAGAA: 6410 a.u.
CTTTCCCGATCTTTCCACGTGTTTTTAGCACATTTG: 17800 a.u.
CCGGTTTTTATTCCTCCCGTGGTCGTTGTCTCTACC: 6170 a.u.
GTTCTGGTGGTGGTTACCGTGCCAGGTTGTCTGGTG: 5220 a.u.
TTACCGACGAGGCTTACCGTGATTGCTCTCCAGTAG: 3750 a.u.
TGAACGAAAAGTGTAGGCGTGCCAGAAATGTCAACA: 7470 a.u.
TGCGCAATGGAGAAACACGGGTGGCATAGGTCTGCG: 7000 a.u.
ATAACCACTAAATTCAAAAACACTTATTTTCAATAT: 3350 a.u.
CATACCCAACCTTGCATGGTGGGTGAAGATATTTGT: 5790 a.u.
